Assay results collected from several papers.
Each line is one published result; not all experiments were run side by side.
Organism: Pseudomonas aeruginosa

Structure (SMILES)	technique	strain	sample	time	temperature	direction	MIC
CC(C)C[C@@H]1NC(=O)[C@H](CCN)NC(=O)CSC[C@@H]2NC(=O)[C@H](CC(C)C)NC(=O)[C@H](CC(C)C)NC(=O)[C@H](CCN)NC(=O)[C@H](CCCCNC(=O)[C@H](CCN)NC1=O)NC(=O)[C@H](CCN)NC(=O)[C@H](CC(C)C)NC(=O)[C@H](CCN)NC(=O)CSC[C@@H](C(=O)N[C@@H](CCN)C(N)=O)NC(=O)[C@H](CC(C)C)NC(=O)[C@H](CC(C)C)NC(=O)[C@H](CC(C)C)NC2=O		PAO1		18 h			64 µg/mL
CC[C@H](C)[C@H](NC(=O)[C@H](CC(=O)O)NC(=O)[C@H](Cc1ccccc1)NC(=O)[C@H](CC(C)C)NC(=O)CN)C(=O)N[C@H](C(=O)N[C@@H](CCCCN)C(=O)N[C@@H](CCCCN)C(=O)N[C@H](C(=O)N[C@@H](CC(C)C)C(=O)N[C@@H](CCCCN)C(=O)N[C@@H](CC(C)C)C(=O)N[C@@H](CC(C)C)C(=O)N[C@@H](CCCCN)C(N)=O)C(C)C)C(C)C		ATCC 19606	CAMHB	18 h	37 °C		> 20 µM
CC[C@H](C)[C@H](NC(=O)[C@H](Cc1c[nH]cn1)NC(=O)[C@H](CCCCNC(=O)[C@@H](NC(=O)[C@H](CCCCN)NC(=O)[C@H](Cc1ccccc1)NC(=O)[C@H](CCCCNC(=O)[C@H](CC(C)C)NC(=O)[C@@H]1CCCN1C(=O)[C@@H](N)CCCCN)NC(=O)[C@H](CC(C)C)NC(=O)[C@@H]1CCCN1C(=O)[C@@H](N)CCCCN)[C@@H](C)CC)NC(=O)[C@@H](NC(=O)[C@H](CCCCN)NC(=O)[C@H](Cc1ccccc1)NC(=O)[C@H](CCCCNC(=O)[C@H](CC(C)C)NC(=O)[C@@H]1CCCN1C(=O)[C@@H](N)CCCCN)NC(=O)[C@H](CC(C)C)NC(=O)[C@@H]1CCCN1C(=O)[C@@H](N)CCCCN)[C@@H](C)CC)C(N)=O		PAO1	LB medium				> 64 µM
CC[C@H](C)[C@H](NC(=O)[C@@H](NC(=O)[C@H](CCCCN)NC(=O)[C@H](CC(=O)O)NC(=O)[C@H](CCCCN)NC(=O)[C@H](Cc1ccccc1)NC(=O)[C@H](Cc1ccccc1)NC(=O)[C@H](CO)NC(=O)[C@H](CCCCN)NC(=O)[C@H](CCSC)NC(=O)[C@H](CCCCN)NC(=O)[C@H](CCCCN)NC(=O)[C@H](Cc1c[nH]c2ccccc12)NC(=O)[C@@H](N)Cc1ccccc1)C(C)C)C(=O)N1CCC[C@H]1C(=O)N[C@@H](CCCCN)C(=O)N[C@H](C(=O)N[C@@H](CCC(N)=O)C(=O)N[C@@H](CCC(N)=O)C(=O)N[C@@H](C)C(=O)N[C@@H](Cc1ccc(O)cc1)C(=O)N[C@@H](CO)C(=O)N[C@@H](CC(C)C)C(=O)N[C@@H](Cc1ccc(O)cc1)C(=O)N[C@@H](CC(N)=O)C(=O)N[C@@H](CCCCN)C(=O)N[C@@H](CC(C)C)C(=O)N[C@@H](CCC(N)=O)C(=O)N[C@@H](Cc1c[nH]cn1)C(=O)N[C@@H](CCCCN)C(=O)N[C@@H](CC(C)C)C(N)=O)C(C)C	broth microdilution	ATCC 27853					1.56 to 6.25 µM
CC[C@H](C)[C@H](NC(=O)[C@H](CCCCN)NC(=O)[C@H](CCC(=O)O)NC(=O)[C@H](CCCCN)NC(=O)[C@H](CO)NC(=O)[C@H](CCCCN)NC(=O)[C@H](CCCNC(=N)N)NC(=O)[C@H](Cc1ccccc1)NC(=O)[C@H](Cc1ccccc1)NC(=O)[C@H](CC(=O)O)NC(=O)CNC(=O)[C@H](CC(C)C)NC(=O)[C@@H](N)CC(C)C)C(=O)NCC(=O)N[C@@H](CCCCN)C(=O)N[C@@H](CCC(=O)O)C(=O)N[C@@H](Cc1ccccc1)C(=O)N[C@@H](CCCCN)C(=O)N[C@@H](CCCNC(=N)N)C(=O)N[C@H](C(=O)N[C@H](C(=O)N[C@@H](CCC(N)=O)C(=O)N[C@@H](CCCNC(=N)N)C(=O)N[C@H](C(=O)N[C@@H](CCCCN)C(=O)N[C@@H](CC(=O)O)C(=O)N[C@@H](Cc1ccccc1)C(=O)N[C@@H](CC(C)C)C(=O)N[C@@H](CCCNC(=N)N)C(=O)N[C@@H](CC(N)=O)C(=O)N[C@@H](CC(C)C)C(=O)N[C@H](C(=O)N1CCC[C@H]1C(=O)N[C@@H](CCCNC(=N)N)C(=O)N[C@H](C(=O)N[C@@H](CCC(=O)O)C(=O)N[C@@H](CO)C(=O)O)[C@@H](C)O)C(C)C)[C@@H](C)CC)C(C)C)[C@@H](C)CC		PAO1 vacJ mutant	RPMI with 5% LB				8 µM
CCCCCCCC/C=C\CCCCc1cc(=O)c2ccccc2n1C	broth microdilution		Luria-Bertani broth				> 256 µg/mL
CC(C)[C@H](NC(=O)[C@H](CCCNC(=N)N)NC(=O)[C@H](CCCNC(=N)N)NC(=O)[C@@H](NC(=O)[C@H](C)NC(=O)[C@H](CC(N)=O)NC(=O)[C@H](CCCNC(=N)N)NC(=O)[C@@H](NC(=O)[C@H](CCCNC(=N)N)NC(=O)[C@H](CCCNC(=N)N)NC(=O)[C@@H](NC(=O)[C@@H](NC(=O)[C@H](CCCNC(=N)N)NC(=O)[C@H](CCCNC(=N)N)NC(=O)[C@H](Cc1c[nH]c2ccccc12)NC(=O)[C@H](Cc1c[nH]c2ccccc12)NC(=O)CN)[C@@H](C)O)C(C)C)C(C)C)C(C)C)C(=O)O		CMCC 10104		18 h	37 °C		16 µg/mL
CC[C@H](C)[C@H](NC(=O)[C@H](C)NC(=O)[C@@H](NC(=O)[C@H](CC(=O)O)NC(=O)[C@H](CCCCN)NC(=O)[C@H](CO)NC(=O)[C@@H](NC(=O)[C@H](CC(N)=O)NC(=O)[C@H](C)NC(=O)[C@@H](NC(=O)[C@H](CCC(=O)O)NC(=O)[C@H](CCCCN)NC(=O)[C@@H](NC(=O)[C@@H](NC(=O)[C@H](Cc1c[nH]cn1)NC(=O)[C@H](CCCCN)NC(=O)[C@@H](NC(=O)[C@H](CCCCN)NC(=O)[C@H](CCCCN)NC(=O)[C@@H](NC(=O)[C@H](CC(C)C)NC(=O)[C@H](CCCCN)NC(=O)[C@H](CC(N)=O)NC(=O)[C@H](Cc1ccccc1)NC(=O)[C@H](CCCNC(=N)N)NC(=O)[C@H](CCCCN)NC(=O)[C@H](CCCNC(=N)N)NC(=O)[C@H](Cc1ccccc1)NC(=O)CN)C(C)C)C(C)C)[C@@H](C)O)[C@@H](C)CC)[C@@H](C)O)C(C)C)C(C)C)C(=O)N[C@H](C(=O)N[C@@H](C)C(=O)NCC(=O)N[C@@H](CO)C(=O)NCC(=O)N[C@H](C(=O)N[C@@H](C)C(=O)N[C@H](C(=O)NCC(=O)N[C@@H](C)C(=O)N[C@@H](C)C(=O)N[C@@H](CCSC)C(N)=O)C(C)C)C(C)C)C(C)C	broth microdilution	ATCC 27853	CAMHB				8 µg/mL
COc1cc2c(=O)c(C(=O)NCCNCCO)cn(Cc3ccccc3)c2cc1OCc1cccc(Br)c1		ATCC 27853				≥80% growth inhibition	< 0.25 µg/mL

For quick reference, copied from above:
Structure (SMILES)	technique	strain	sample	time	temperature	direction	MIC
CCCCCCCC/C=C\CCCCc1cc(=O)c2ccccc2n1C	broth microdilution		Luria-Bertani broth				> 256 µg/mL
